Assay results of several laboratories.
Each numbered part is a random draw from the data of one study; scales do not carry over between parts.
Chain of UniProt P31749 (whole entry, looked up): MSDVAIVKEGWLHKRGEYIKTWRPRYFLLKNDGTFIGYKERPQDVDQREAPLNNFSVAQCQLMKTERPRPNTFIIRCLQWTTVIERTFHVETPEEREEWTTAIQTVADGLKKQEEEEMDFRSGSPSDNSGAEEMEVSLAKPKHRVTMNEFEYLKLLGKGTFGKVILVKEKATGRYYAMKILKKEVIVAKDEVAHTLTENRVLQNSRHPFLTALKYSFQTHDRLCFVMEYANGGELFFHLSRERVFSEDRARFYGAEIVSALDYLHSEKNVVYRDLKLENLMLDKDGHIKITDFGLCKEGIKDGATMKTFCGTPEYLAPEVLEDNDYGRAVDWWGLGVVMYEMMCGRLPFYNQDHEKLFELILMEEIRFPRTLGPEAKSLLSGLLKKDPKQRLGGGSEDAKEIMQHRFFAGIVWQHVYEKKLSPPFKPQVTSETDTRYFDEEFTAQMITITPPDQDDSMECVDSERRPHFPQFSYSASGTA
Chain of UniProt Q99558 (whole entry, looked up): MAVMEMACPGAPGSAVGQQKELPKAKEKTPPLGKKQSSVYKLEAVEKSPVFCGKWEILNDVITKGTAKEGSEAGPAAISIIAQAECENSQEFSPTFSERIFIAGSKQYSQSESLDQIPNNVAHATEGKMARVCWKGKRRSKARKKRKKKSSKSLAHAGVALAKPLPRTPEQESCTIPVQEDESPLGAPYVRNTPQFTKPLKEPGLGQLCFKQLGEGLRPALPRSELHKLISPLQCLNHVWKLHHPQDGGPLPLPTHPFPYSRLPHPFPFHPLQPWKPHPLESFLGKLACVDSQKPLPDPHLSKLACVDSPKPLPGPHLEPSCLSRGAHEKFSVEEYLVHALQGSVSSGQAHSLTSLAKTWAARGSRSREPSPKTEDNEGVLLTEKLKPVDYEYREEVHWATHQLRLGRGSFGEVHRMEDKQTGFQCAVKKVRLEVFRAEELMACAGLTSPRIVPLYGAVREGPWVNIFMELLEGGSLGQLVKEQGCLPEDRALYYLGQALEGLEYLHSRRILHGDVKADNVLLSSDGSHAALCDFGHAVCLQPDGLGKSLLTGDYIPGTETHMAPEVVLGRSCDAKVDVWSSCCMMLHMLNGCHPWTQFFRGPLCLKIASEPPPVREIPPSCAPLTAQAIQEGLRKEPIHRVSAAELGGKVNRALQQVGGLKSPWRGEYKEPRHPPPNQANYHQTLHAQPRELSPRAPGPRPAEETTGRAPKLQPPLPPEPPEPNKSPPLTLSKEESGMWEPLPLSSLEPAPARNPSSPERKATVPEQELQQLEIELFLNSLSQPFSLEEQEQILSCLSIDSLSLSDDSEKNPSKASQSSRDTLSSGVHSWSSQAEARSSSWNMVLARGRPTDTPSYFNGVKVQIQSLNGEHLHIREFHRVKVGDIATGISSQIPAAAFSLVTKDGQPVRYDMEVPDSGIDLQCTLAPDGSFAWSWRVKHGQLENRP
Chain of UniProt Q02763 (whole entry, looked up): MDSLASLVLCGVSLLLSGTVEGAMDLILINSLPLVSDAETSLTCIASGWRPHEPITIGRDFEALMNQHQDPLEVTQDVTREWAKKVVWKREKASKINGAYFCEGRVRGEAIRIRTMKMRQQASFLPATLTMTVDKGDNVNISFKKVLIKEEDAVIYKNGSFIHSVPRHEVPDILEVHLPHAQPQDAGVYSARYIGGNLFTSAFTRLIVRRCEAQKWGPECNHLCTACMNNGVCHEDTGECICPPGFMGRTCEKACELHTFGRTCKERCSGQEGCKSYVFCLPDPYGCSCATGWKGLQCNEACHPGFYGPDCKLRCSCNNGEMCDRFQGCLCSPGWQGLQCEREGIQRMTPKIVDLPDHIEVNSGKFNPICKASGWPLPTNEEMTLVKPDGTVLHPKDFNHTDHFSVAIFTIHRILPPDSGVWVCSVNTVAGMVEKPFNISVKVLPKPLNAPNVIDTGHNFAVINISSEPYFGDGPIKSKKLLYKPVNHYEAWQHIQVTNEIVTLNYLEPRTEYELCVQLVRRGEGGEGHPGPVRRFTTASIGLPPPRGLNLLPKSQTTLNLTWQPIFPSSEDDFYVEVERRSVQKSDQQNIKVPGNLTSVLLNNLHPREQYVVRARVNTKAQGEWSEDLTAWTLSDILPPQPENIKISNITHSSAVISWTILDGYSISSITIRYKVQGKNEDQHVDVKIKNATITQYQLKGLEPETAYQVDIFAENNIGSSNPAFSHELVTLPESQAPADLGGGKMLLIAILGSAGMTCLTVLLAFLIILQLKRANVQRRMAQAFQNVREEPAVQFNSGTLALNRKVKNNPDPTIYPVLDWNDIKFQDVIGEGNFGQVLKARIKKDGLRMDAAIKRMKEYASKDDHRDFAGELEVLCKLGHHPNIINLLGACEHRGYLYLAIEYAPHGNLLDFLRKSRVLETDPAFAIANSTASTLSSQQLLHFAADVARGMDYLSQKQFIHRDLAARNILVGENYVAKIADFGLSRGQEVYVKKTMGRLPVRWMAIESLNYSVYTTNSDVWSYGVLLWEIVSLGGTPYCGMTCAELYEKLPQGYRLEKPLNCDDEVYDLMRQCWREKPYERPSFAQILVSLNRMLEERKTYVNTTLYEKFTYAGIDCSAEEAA
Chain of UniProt Q9Y6M4 (whole entry, looked up): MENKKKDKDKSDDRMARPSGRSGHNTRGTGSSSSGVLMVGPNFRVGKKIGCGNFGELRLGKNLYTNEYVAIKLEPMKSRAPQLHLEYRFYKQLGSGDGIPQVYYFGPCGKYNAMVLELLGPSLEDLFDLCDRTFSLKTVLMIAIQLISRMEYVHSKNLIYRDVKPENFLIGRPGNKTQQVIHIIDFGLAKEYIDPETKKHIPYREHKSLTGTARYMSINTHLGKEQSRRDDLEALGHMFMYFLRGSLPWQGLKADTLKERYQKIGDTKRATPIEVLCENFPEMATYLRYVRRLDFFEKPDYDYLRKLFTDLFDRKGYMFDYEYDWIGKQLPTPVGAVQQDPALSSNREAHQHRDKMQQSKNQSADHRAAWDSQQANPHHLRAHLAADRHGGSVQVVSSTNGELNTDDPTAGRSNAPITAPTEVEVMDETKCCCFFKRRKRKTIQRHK
Chain of UniProt P06239 (whole entry, looked up): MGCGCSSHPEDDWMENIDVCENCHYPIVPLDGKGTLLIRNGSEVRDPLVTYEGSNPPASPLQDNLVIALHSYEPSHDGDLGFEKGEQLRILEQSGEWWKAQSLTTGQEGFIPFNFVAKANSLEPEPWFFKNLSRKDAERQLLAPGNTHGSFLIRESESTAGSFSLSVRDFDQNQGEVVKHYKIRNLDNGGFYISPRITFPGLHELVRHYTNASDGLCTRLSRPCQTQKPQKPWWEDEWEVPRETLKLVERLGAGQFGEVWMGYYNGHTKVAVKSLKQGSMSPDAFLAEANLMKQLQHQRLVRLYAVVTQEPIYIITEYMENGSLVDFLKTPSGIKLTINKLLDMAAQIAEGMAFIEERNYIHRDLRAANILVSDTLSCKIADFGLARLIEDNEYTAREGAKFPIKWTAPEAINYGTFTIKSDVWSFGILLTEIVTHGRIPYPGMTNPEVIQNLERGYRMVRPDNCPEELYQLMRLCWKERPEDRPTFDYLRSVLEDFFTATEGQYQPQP
Chain of UniProt P29320 (whole entry, looked up): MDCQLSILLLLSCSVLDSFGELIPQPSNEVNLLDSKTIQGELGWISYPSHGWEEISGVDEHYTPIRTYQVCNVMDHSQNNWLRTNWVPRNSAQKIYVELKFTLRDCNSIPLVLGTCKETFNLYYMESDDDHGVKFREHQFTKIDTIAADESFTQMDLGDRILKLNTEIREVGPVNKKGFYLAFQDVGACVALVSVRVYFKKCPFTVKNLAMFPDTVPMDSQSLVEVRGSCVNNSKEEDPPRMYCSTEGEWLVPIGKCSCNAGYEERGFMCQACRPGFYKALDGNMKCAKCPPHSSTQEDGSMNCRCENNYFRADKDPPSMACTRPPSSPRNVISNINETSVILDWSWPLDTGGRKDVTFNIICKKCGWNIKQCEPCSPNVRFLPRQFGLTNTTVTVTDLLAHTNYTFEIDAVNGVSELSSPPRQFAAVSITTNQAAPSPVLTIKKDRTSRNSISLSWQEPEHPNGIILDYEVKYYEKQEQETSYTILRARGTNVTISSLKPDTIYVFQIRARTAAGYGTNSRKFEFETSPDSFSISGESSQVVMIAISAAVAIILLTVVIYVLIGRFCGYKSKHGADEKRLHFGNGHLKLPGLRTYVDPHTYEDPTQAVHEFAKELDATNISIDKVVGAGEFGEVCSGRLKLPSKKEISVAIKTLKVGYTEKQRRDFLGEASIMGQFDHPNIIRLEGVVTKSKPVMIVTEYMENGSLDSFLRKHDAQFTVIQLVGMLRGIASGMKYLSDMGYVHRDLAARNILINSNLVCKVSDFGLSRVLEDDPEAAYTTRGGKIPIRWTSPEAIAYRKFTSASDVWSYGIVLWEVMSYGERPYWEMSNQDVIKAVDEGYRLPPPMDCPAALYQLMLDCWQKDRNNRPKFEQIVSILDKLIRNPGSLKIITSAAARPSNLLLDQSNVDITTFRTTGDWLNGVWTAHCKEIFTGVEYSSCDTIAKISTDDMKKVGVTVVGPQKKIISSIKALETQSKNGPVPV
Chain of UniProt P36507 (whole entry, looked up): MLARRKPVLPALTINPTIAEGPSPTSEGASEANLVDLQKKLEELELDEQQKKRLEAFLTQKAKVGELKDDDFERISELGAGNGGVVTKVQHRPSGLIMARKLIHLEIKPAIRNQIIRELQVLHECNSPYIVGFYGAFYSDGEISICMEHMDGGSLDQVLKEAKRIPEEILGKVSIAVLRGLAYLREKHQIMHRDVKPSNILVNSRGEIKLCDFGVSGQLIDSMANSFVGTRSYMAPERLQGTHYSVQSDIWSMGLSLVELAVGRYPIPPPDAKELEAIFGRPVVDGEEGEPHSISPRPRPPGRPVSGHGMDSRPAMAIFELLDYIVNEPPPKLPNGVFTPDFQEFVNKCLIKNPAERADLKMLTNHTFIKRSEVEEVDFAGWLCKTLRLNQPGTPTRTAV

Sample 1 — SMILES: O=C(O)/C=C/c1cc(Br)c(Br)c(Br)c1Br; read-out: enzyme activity; action: inhibitor; tested at: 0.5 µM; baseline: control
target | remaining activity [%]
MAP3K5 (Homo sapiens, UniProt Q99683) | 94
MERTK (Homo sapiens, UniProt Q12866) | 92.4
NEK6 (Homo sapiens, UniProt Q9HC98) | 102
CSNK1G3 (Homo sapiens, UniProt Q9Y6M4) | 92.1
TEK (Homo sapiens, UniProt Q02763) | 94.4
MAP2K2 (Homo sapiens, UniProt P36507) | 103
GSK3B (Homo sapiens, UniProt P49841) | 105
LCK (Homo sapiens, UniProt P06239) | 99.3
TAOK2 (Homo sapiens, UniProt Q9UL54) | 88.9
MAP3K14 (Homo sapiens, UniProt Q99558) | 100
MAPK3 (Homo sapiens, UniProt P27361) | 110
RPS6KA2 (Homo sapiens, UniProt Q15349) | 75.8
TBK1 (Homo sapiens, UniProt Q9UHD2) | 91.4

Sample 2 — read-out: cell-free assay; method: competition with immobilised ligand; tested at: 1 µM
SMILES: CS(=O)(=O)c1cc(C2(NC(=O)c3cncc4c3cnn4-c3ccc(F)cc3)CC2)ccn1
target | remaining binding
EPHA3 (Homo sapiens, UniProt P29320) | 90%
TIE1 (Homo sapiens, UniProt P35590) | 73%
LIM domain kinase 2 (LIMK2, Homo sapiens, UniProt P53671) | 100%
AKT1 (Homo sapiens, UniProt P31749) | 100%

Sample 3 — cell line: A-375; tested at: 100 µM; time: 18 h
Compound | viability [%]
C[C@]12C=CC(=O)C=C1CC[C@@H]1[C@@H]2[C@@H](O)C[C@@]2(C)[C@H]1CC[C@]2(O)C(=O)CO | 112
CC(C)C[C@H](NC(=O)[C@H](Cc1ccccc1)NC(=O)c1cnccn1)B(O)O | 17.9
CN1CCc2c(c3ccccc3n2Cc2ccccc2)C1 | 94.4
Cc1ccc(C(=O)C(C)CN2CCCCC2)cc1 (centres unmarked) | 94.5
CC(CCc1ccccc1)NCC(O)c1ccc(O)c(C(N)=O)c1 (centres unmarked) | 100

Sample 4 — read-out: kinase activity; action: inhibitor; tested at: 1 µM
SMILES: CC(C)S(=O)(=O)c1ccc2nccc(Nc3ccc4sc(C5CCCC5)nc4c3)c2c1.Cl
target | remaining activity [%]
MAPK14 (Homo sapiens, UniProt Q16539) | 88
NTRK3 (Homo sapiens, UniProt Q16288) | 91
BMPR1B (Homo sapiens, UniProt O00238) | 90
PRKDC (Homo sapiens, UniProt P78527) | 109

Sample 5 — read-out: cell-free assay; tested at: 1 µM
SMILES: C[C@H]1CC[C@H](n2c3cnccc3c3cnc(Nc4ccc5c(n4)CCN(C(=O)CO)C5)nc32)CC1
target | remaining signal [%]
MAP3K9 (Homo sapiens, UniProt P80192) | 68
MAST1 (Homo sapiens, UniProt Q9Y2H9) | 73
CSNK1D (Homo sapiens, UniProt P48730) | 20

For quick reference, copied from above (sample 5):
target | remaining signal [%]
MAST1 (Homo sapiens, UniProt Q9Y2H9) | 73
CSNK1D (Homo sapiens, UniProt P48730) | 20
